Measured values from different studies.
Every numbered part comes from another study and shows a few of its results, in no order. Values joined by “and” are separate records of one study, mostly repeats; a detail may differ.

Sample 1 — technique: RNA Bind-n-Seq; form: RNA; matrix: in vitro; tested at: 365 nM; relative to: no-protein control; direction: higher = stronger binding
Target: RNA binding protein fox-1 homolog 2, RRM domain, GST-SBP tag (RBFOX2, Homo sapiens, UniProt O43251-10, residues 100-194)
Setting: natural RNA segment, single round, ends assumed
All sequences stand within: GGGAGUUCUACAGUCCGACGAUC … UGGAAUUCUCGGGUGCCAA
Construct (chain): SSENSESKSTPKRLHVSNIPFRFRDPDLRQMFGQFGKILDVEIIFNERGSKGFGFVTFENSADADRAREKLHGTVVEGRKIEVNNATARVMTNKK
Strand	RBNS enrichment (R)
AGCAGUUAUCAAUAAUUCCCACCCAGGAAACUUUUAUUUAUUGUUUUUUAAAGAUAAAACUGCACAGAUGGGAGUGAGAGAUUUACCUCUGCUCCUUCCUCCUUCAGUGC	0.543
UUUUCUACGUUGGAACGUGCCCCGGAAUGUGGCCGUCGGCACACUUCUCAGGACAAUGAAUCCUUCCUGUUUUUCUUUUUAUGCCACACAGUGCAUUGUUUUUCUACCUG	0.818
UUGUGAGGCCAAGGUGGGUGGAUCACCUGAGGUCAGGAGUUUGAGACCAGCCUGACCAAACAUGGCGAAACCCCAUCUGUACUGAAAAUACAAAAAUUAGGCAUGGUGGU	2.94
GCCUCUUCAGGAAAGAAACCUCAUUCUUUGGCAAGCAGGAGGUGACACUAGAUGGCUGUGAAUGUGAUCCGCUCACUGACACUCUGUAAAGGCCAAUCAAUGCACUGUCU	0.278
UAAAAGUUCACGGUAUGAGAGUUAGUGCUUCUUCCCAAUUUGACCGUUGUAUAUUUUUGGAAACGUUCUUUAGAAUACAUUUCUGCAUUAUUUGUAUGCUUCCCAGAGAA	1.18
GGUGUGUGUAAGUAUGUGUGCACAUGGGAGUGUGGGUGUGUGUGUGUGCACAUGUGUGGGUGUGUGUGCACAUGUUUGGAUGUGUGCACAUGUGCAUGCCUGUUUCUUUU	2.03
GUGAUCUUUUCAAUUCAGUGAAUAAACCAGGAAUCCAUUUUUUCACCAACCCACCCUGUAGAUUGUCAGCUUUUUGUUUGAGAGAUGCCUGGUCUCACAGUUACAUGUAU	0.755
UUAAGUCAACUGCAUGCAGCUUUGCUGAUAAAUGAAUAAUUCUCUUUGAUGCCAUUUAUGAGAAAAGACUUCAAUAUCUGUUGCCUGUCAUAUUUAAGAAAAAUUACUGU	0.905

Sample 2 — technique: RNA Bind-n-Seq; form: RNA; matrix: in vitro; tested at: 1 µM; setting: whole 134-nt RNA, ends assumed; added: 150 mM KCl; relative to: input library; direction: higher = stronger binding
Target: Ras GTPase-activating protein-binding protein 1, C-terminal RGG region (G3BP1, Homo sapiens, UniProt Q13283)
UniProt Q13283, sequence (whole entry, looked up): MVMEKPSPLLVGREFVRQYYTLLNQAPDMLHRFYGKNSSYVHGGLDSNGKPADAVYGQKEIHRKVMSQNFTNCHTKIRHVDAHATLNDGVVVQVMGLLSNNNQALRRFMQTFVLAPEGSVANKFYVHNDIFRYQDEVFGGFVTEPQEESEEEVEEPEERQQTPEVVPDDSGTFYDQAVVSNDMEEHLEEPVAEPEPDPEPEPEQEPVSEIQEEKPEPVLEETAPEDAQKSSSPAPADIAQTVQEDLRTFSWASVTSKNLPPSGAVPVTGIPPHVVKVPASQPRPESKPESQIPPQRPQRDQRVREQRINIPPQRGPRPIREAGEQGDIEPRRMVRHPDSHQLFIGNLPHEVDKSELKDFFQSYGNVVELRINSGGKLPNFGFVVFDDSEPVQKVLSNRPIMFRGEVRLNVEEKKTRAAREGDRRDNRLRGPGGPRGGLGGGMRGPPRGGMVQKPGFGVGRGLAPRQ
All sequences stand within: GGGAGUUCUACAGUCCGACGAUC … UGGAAUUCUCGGGUGUCAAGG
Strand	log2 enrichment
UCAAGUCCUGUGCUACACAUCGUAUGUACCGAAUCGGAAAAAGGUUUGGUUUGGAAAGUAUUAUGUUACGCCGUUCGGAUCUGCACUUCC	-1.43
UCCUCAAGUCCUGUGCUACACAUCGUAUGUACCGAAUCGGUGGGGUGGUGGGAAAGUAUUAUGUUACGCCGUUCGGAUCUGCACUUCCAG	0.0353
UAACUUUAGAGGAGGAUCUGAUGGAUAUGGCAGUGGACGUGGAUUUGGGGAUGGCUAUAAUGGGUAUGGAGGAGGACCUGGAAGUGGCAA	-0.806
AGUCCUGUGCUACACAUCGUAUGUACCGAAUCGGGUUUUUUUGGGAGGGUUUUUGGGAAAGUAUUAUGUUACGCCGUUCGGAUCUGCACU	0.87
CUGUGCUACACAUCGUAUGUACCGAAUCGGGGAAAAAAAGGGGAAAAAAAGGAAAAAAAGGAAAGUAUUAUGUUACGCCGUUCGGAUCUG	-1.36

Sample 3 — technique: protein-binding microarray; form: double-stranded DNA, one strand shown; matrix: in vitro; tested at: 2200 nM top; setting: 60-bp whole probe; added: salmon DNA 0.4 mg/ml; relative to: random background probes; direction: higher = stronger binding; all sequences stand within: GCCTAGCAC … GTCTTGATTCGCTTGACGCTGCTG
Target: Interferon regulatory factor 7, full length, phosphomimetic (IRF7, Homo sapiens, UniProt Q92985, residues 1-503, S471D/S472D/S475D/S476D/S477D/S483D/S484D/S487D)
Residues (chain): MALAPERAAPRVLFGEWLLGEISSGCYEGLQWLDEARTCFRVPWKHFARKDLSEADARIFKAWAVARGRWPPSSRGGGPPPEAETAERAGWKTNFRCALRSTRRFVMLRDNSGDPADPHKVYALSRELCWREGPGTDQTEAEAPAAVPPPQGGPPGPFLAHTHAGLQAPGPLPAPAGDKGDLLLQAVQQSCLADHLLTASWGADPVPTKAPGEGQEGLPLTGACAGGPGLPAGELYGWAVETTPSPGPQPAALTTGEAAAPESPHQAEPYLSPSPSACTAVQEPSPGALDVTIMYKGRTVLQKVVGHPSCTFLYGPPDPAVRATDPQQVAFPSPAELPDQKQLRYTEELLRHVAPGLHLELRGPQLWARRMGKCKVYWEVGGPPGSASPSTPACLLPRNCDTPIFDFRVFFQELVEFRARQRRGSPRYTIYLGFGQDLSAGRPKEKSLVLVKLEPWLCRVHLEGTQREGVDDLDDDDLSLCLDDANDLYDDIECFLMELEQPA
Strand	fitted relative affinity
TTAGGTTCCGGTTTCGGCTAGTGCTAG	5.29 z-score
TTAGAACTGTGTATCGATTAGTGCTAG	0.0437 z-score
TTAGATATCGGGTTTCGAATAGTGCTA	1.19 z-score
CTCACCCAGTCCAGACACCCGTGCTAG	0.0691 z-score
AACTGCTGCCGTCCACCACTGTGCTAG	0.513 z-score
GAGGGACTGGACTTTCGGGACGTGCTA	1.75 z-score
GACGATTTCAGACTGGAGGCGTGCTAG	0.306 z-score

Further values, each from its own experiment
Substance	target	assay	system	setting	scale	endpoint	result
PhoQ, residues 284 288 289 292 302 303 SIHLQL	PhoP, residues 12 14 15 18 19 LWHSL (Escherichia coli, UniProt P23836)	Sort-seq, refers to: YFP reporter	E. coli	PhoQ-PhoP variant library, added: 10 µM Mg2+	relative to: high Mg2+ state, higher = stronger signaling	fold induction	13.5 and 6.82
